Experimental data from different studies.
Every numbered part comes from another study and shows a few of its results, in no order.
UniProt P42681, sequence (whole entry, looked up): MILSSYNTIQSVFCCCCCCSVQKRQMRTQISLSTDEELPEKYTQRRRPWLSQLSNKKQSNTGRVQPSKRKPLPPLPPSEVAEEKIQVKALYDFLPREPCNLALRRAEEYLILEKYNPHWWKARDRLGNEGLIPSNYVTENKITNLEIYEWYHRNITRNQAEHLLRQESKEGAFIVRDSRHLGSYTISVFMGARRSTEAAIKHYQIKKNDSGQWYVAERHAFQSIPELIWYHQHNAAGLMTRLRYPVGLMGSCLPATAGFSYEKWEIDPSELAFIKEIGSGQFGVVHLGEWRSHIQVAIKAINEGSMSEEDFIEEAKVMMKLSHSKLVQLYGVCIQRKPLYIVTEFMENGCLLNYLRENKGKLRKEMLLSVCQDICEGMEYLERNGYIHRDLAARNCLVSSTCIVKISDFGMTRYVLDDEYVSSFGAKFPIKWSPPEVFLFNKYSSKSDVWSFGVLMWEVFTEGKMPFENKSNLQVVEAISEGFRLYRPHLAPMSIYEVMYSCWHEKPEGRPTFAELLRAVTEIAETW
UniProt Q9NRH2, sequence (whole entry, looked up): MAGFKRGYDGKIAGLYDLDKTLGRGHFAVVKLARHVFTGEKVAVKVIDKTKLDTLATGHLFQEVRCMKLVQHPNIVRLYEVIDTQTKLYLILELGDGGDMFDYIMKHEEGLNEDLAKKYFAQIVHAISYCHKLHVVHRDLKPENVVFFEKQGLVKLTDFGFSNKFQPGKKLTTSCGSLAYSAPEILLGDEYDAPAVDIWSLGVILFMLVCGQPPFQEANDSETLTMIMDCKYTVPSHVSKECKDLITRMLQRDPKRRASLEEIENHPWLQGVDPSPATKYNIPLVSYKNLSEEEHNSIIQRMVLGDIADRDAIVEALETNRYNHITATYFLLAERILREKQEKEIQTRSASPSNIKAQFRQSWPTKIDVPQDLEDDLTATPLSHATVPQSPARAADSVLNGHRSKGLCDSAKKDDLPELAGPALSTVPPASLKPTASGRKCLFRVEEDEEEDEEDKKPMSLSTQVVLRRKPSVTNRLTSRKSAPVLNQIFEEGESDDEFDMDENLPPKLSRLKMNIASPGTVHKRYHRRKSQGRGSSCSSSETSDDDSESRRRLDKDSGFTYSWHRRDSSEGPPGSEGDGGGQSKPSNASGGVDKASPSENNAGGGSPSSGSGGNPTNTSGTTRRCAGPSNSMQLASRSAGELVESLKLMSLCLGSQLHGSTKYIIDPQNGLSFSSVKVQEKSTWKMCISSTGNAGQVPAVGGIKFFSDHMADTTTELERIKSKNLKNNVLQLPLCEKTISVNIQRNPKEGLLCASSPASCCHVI
UniProt Q9P289, sequence (whole entry, looked up): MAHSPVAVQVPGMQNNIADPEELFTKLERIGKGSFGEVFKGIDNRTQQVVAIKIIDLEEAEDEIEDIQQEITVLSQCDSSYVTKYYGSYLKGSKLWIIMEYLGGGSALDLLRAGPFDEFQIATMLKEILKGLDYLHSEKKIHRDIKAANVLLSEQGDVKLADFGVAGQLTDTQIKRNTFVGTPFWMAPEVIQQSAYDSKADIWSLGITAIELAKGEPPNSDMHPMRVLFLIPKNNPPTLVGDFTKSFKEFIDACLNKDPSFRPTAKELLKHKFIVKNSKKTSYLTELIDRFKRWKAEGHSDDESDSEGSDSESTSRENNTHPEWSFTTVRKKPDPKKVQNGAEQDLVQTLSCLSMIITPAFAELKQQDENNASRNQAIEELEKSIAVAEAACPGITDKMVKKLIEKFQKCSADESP
UniProt P29597, sequence (whole entry, looked up): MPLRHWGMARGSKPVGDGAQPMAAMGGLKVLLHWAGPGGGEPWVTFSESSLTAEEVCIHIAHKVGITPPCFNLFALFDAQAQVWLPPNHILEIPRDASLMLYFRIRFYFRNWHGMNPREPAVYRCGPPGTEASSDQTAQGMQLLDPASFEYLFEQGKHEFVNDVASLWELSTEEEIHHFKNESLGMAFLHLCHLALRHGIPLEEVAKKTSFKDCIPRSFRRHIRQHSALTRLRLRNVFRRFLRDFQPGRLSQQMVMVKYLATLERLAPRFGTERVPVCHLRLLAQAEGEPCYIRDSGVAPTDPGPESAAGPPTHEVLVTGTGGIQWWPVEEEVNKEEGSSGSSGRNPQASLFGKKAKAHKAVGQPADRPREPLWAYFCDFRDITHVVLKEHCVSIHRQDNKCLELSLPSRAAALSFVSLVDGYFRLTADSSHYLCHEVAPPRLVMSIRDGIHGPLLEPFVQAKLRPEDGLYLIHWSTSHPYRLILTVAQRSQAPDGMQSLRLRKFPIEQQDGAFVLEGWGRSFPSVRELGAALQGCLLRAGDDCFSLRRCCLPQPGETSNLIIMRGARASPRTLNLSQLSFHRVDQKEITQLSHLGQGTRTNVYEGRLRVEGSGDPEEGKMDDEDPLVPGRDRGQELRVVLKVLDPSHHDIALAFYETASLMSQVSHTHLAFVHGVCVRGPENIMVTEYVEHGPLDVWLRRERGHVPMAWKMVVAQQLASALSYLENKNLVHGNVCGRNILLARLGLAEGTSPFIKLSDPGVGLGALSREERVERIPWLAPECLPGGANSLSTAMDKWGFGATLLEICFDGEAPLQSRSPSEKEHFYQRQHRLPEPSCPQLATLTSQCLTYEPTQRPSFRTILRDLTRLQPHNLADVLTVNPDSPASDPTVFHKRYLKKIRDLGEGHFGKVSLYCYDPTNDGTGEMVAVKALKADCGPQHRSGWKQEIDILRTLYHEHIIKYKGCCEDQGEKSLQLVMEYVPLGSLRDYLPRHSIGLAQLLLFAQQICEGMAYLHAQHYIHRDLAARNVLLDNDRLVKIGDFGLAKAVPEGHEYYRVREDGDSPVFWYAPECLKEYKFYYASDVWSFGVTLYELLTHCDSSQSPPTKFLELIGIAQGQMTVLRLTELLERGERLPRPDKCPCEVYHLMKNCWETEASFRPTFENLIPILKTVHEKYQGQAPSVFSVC
UniProt Q9Y2U5, sequence (whole entry, looked up): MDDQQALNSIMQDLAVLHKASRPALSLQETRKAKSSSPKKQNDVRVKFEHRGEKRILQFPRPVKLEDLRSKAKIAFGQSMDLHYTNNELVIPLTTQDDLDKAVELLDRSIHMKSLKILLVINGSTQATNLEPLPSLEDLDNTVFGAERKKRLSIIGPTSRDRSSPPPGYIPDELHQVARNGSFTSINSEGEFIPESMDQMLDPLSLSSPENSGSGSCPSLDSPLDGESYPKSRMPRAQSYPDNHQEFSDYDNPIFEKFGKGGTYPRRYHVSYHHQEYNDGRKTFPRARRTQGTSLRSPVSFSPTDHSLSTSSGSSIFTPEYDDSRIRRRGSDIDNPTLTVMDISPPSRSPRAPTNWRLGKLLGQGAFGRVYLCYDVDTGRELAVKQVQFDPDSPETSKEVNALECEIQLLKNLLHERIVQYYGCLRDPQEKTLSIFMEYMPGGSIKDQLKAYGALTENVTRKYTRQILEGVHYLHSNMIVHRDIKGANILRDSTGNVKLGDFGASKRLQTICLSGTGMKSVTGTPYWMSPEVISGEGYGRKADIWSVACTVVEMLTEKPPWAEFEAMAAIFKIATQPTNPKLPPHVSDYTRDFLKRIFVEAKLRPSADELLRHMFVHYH
UniProt P57059, sequence (whole entry, looked up): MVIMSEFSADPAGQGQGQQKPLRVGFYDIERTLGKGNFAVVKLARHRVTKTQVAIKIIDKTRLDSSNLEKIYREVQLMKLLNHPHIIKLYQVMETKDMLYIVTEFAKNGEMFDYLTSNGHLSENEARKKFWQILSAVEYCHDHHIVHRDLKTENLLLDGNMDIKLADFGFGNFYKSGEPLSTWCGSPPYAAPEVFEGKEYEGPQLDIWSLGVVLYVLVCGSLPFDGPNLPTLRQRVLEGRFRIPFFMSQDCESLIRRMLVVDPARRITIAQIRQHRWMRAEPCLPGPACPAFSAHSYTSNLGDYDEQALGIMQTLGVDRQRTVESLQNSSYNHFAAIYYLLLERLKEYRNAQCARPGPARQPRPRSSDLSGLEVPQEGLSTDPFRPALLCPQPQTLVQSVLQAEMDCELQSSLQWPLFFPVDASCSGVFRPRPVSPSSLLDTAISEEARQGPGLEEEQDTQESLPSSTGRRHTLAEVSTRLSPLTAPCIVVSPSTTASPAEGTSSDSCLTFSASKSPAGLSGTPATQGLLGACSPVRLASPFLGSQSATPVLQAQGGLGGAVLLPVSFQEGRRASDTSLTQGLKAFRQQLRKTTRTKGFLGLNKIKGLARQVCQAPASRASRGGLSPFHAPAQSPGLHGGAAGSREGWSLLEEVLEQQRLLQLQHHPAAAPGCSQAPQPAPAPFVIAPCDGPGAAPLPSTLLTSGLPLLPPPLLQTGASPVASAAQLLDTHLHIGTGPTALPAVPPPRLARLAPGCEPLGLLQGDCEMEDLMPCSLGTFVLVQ

Study 1
Target: Calcium/calmodulin-dependent protein kinase type II subunit alpha (CAMK2A, Homo sapiens, UniProt Q9UQM7)
UniProt Q9UQM7, sequence (whole entry, looked up): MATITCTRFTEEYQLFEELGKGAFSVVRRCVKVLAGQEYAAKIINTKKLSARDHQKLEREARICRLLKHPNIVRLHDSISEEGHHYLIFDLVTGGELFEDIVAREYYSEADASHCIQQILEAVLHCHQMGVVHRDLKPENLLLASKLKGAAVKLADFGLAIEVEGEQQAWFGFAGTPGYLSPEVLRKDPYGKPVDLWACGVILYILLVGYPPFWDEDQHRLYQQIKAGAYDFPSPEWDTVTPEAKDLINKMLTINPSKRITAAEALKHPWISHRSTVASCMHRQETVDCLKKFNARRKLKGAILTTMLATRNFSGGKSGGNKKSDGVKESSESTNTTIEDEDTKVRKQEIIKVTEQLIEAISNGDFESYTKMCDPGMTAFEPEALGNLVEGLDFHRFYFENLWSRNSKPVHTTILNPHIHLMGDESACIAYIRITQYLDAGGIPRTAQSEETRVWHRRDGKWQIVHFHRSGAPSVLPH
Effect on: enzyme activity
Action: inhibitor
Tested at: 10 µM
Measurement: inhibition
O=C1C=C(O)C(=O)c2ccccc21: 9%
O=C(O)CC1CCCCC1: -36%
COc1nc(N)nc2c1ncn2[C@@H]1O[C@H](CO)[C@@H](O)[C@@H]1O: -6%
COc1cc2c(=O)c(-c3ccc(O)cc3)coc2cc1O: -19%
CO[C@H]1c2cc(C(C)C)c(O)c(O)c2[C@@]23CCCC(C)(C)[C@@H]2[C@@H]1OC3=O: 10%
OC[C@H]1O[C@@H](Oc2cc3c(O)cc(O)cc3[o+]c2-c2ccc(O)c(O)c2)[C@H](O[C@@H]2OC[C@@H](O)[C@H](O)[C@H]2O)[C@@H](O)[C@@H]1O: 8%
CC[C@]1(O)C[C@H]2CN(CCc3c([nH]c4ccccc34)[C@@](C(=O)OC)(c3cc4c(cc3OC)N(C=O)[C@H]3[C@@](O)(C(=O)OC)[C@H](OC(C)=O)[C@]5(CC)C=CCN6CC[C@]43[C@@H]65)C2)C1: 11%

Study 2
Compound: O=C(Nc1cnn(-c2csc(C(=O)NC3COC3)c2)c1)Nc1c(F)cccc1Cl
Effect on: enzyme activity
Tested at: 5 µM
Reference: untreated control
Measurement: remaining activity
RAC-beta serine/threonine-protein kinase (AKT2, Homo sapiens, UniProt P31751): 104%
LIM domain kinase 1 (LIMK1, Homo sapiens, UniProt P53667): 98.6%
Casein kinase II subunit alpha (CSNK2A1, Homo sapiens, UniProt P68400): 87.5%
High affinity nerve growth factor receptor (NTRK1, Homo sapiens, UniProt P04629): 87.5%
Tyrosine-protein kinase TXK (TXK, Homo sapiens, UniProt P42681): 90.2%
Receptor-interacting serine/threonine-protein kinase 3 (RIPK3, Homo sapiens, UniProt Q9Y572): 92.7%
Serine/threonine-protein kinase SIK1 (SIK1, Homo sapiens, UniProt P57059): 96.5%
Activin receptor type-1B (ACVR1B, Homo sapiens, UniProt P36896): 80.1%
Serine/threonine-protein kinase A-Raf (ARAF, Homo sapiens, UniProt P10398): 92.6%

Study 3
Structure (SMILES): CCCOc1ccc([C@H]2[C@H](C(=O)O)[C@@H](c3ccc4c(c3)OCO4)CN2CC(=O)Nc2c(CC)cccc2CC)cc1
Effect on: cell-free assay
Technique: competition with immobilised ligand
Tested at: 1 µM
Measurement: remaining binding
Epidermal growth factor receptor (EGFR, Homo sapiens, UniProt P00533, L861Q): 100%
Tyrosine-protein kinase ABL1, phosphorylated (ABL1, Homo sapiens, UniProt P00519, H396P): 81%
Myosin light chain kinase (MYLK3, Homo sapiens, UniProt Q32MK0): 86%
Mitogen-activated protein kinase kinase kinase 2 (MAP3K2, Homo sapiens, UniProt Q9Y2U5): 82%
Serine/threonine-protein kinase 26 (STK26, Homo sapiens, UniProt Q9P289): 74%
Cyclin-dependent kinase 7 (CDK7, Homo sapiens, UniProt P50613): 78%
Epidermal growth factor receptor (EGFR, Homo sapiens, UniProt P00533, A750P/del747-749): 100%
Fibroblast growth factor receptor 1 (FGFR1, Homo sapiens, UniProt P11362): 100%
Serine/threonine-protein kinase TAO3 (TAOK3, Homo sapiens, UniProt Q9H2K8): 81%
Cyclin-dependent kinase 18 (CDK18, Homo sapiens, UniProt Q07002): 100%
Receptor-type tyrosine-protein kinase FLT3 (FLT3, Homo sapiens, UniProt P36888, D835V): 88%
Serine/threonine-protein kinase PLK4 (PLK4, Homo sapiens, UniProt O00444): 78%
SNF-related serine/threonine-protein kinase (SNRK, Homo sapiens, UniProt Q9NRH2): 84%
Non-receptor tyrosine-protein kinase TYK2, JH1 (TYK2, Homo sapiens, UniProt P29597): 51%
Phosphatidylinositol 4,5-bisphosphate 3-kinase catalytic subunit alpha isoform (PIK3CA, Homo sapiens, UniProt P42336, Q546K): 69%

Study 4
Species: mouse
Medium: microsomes or S9
Tested at: 2 µM
Time: 0.5 h
Measurement: remaining compound
Cc1c(CN2CCOCC2)c(=O)n(-c2ccccc2)n1C: > 100%
CCn1nccc1C(C)NS(=O)(=O)c1ccc(Br)s1 (stereo not shown): 44.8%
Cc1ccc(NC(=O)c2cc3ccccc3n2C)c(OCC(=O)N(C)C)c1: 15.2%
Cc1ccc(NC(=O)Nc2ccc(Cc3ccc(NC(=O)OC(C)(C)C)cc3)cc2)cc1: 42.5%
Cc1ccc(-c2cc(C(=O)Nc3ccc4c(c3)N(C)C(=O)CO4)no2)cc1: 24.8%
COc1ccc(-n2c3c(c4nc(OC)ccc42)CCC3)cc1: 2.45%
O=C(c1csc(-c2ccsc2)n1)N(Cc1ncc[nH]1)c1cccc(F)c1: 1.15%
COc1cc2c(cc1OC)C1CCCCC1OC2c1cccc(F)c1 (stereo not shown): 7.07%
Cc1nc(N(C)CC(O)CN2CCN(C)CC2)nc(C)c1CC(C)C (stereo not shown): 35.4%

Excerpt of the above (study 3):
Serine/threonine-protein kinase 26 (STK26, Homo sapiens, UniProt Q9P289): 74%
Serine/threonine-protein kinase TAO3 (TAOK3, Homo sapiens, UniProt Q9H2K8): 81%
Non-receptor tyrosine-protein kinase TYK2, JH1 (TYK2, Homo sapiens, UniProt P29597): 51%
Phosphatidylinositol 4,5-bisphosphate 3-kinase catalytic subunit alpha isoform (PIK3CA, Homo sapiens, UniProt P42336, Q546K): 69%
